Measurements from different studies.
Each line is one published result; not all experiments were run side by side. Several values in a cell are separate wells, animals, samples, runs or records. Numbers after ± are the reported error.
Uncharacterized hydrolase SAUSA300_2518: Uncharacterized hydrolase SAUSA300_2518 (Staphylococcus aureus, UniProt Q2FDS6)
Chain of UniProt Q2FDS6 (whole entry, looked up): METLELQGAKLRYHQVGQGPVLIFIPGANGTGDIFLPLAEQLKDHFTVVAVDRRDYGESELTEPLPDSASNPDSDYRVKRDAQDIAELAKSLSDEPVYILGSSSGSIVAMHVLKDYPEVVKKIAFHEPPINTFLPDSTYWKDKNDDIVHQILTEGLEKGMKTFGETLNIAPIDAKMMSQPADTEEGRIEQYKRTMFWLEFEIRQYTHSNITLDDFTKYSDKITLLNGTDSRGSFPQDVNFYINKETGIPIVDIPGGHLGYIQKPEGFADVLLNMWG
Chain of UniProt Q9Y243 (whole entry, looked up): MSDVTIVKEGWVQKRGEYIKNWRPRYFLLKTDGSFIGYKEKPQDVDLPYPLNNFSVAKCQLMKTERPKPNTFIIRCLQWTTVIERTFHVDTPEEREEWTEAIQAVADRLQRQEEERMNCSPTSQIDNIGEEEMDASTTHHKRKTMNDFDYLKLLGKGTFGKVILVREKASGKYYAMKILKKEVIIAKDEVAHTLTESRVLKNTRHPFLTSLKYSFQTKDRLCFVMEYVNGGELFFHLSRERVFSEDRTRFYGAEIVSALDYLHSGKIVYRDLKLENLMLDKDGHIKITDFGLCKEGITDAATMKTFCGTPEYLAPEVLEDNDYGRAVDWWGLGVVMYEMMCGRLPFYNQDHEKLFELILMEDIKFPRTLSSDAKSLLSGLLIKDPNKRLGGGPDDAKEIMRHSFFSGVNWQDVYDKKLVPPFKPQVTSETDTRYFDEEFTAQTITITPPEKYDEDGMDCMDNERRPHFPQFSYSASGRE
Chain of UniProt P16234 (whole entry, looked up): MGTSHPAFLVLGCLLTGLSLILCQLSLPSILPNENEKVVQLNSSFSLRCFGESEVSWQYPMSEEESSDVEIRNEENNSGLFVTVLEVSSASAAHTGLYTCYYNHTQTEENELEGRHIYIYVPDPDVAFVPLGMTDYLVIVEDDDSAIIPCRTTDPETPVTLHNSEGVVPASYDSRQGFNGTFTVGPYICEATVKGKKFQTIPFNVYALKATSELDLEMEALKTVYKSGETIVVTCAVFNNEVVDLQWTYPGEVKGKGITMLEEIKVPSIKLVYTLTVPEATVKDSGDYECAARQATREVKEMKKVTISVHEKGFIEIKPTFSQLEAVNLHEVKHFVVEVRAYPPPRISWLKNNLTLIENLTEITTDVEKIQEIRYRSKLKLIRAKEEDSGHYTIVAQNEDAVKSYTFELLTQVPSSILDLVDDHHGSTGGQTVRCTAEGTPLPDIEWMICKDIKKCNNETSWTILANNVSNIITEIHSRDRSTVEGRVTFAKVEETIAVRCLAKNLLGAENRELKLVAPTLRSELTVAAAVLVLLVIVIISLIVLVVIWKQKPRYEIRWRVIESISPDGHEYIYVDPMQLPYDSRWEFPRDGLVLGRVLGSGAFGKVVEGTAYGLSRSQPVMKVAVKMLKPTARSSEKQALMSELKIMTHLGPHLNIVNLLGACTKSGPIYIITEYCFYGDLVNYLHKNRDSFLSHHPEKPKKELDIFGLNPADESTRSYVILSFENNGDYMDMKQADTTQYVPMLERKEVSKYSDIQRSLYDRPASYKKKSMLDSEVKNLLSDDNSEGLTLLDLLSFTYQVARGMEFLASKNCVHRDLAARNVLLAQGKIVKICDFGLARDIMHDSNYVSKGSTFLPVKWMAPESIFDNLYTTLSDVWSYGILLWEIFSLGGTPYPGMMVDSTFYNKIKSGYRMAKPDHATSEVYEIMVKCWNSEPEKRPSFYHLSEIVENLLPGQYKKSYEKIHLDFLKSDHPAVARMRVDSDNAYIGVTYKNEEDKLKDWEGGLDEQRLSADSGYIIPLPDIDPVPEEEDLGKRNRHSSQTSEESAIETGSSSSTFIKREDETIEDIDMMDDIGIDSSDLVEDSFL
Chain of UniProt P03114 (whole entry, looked up): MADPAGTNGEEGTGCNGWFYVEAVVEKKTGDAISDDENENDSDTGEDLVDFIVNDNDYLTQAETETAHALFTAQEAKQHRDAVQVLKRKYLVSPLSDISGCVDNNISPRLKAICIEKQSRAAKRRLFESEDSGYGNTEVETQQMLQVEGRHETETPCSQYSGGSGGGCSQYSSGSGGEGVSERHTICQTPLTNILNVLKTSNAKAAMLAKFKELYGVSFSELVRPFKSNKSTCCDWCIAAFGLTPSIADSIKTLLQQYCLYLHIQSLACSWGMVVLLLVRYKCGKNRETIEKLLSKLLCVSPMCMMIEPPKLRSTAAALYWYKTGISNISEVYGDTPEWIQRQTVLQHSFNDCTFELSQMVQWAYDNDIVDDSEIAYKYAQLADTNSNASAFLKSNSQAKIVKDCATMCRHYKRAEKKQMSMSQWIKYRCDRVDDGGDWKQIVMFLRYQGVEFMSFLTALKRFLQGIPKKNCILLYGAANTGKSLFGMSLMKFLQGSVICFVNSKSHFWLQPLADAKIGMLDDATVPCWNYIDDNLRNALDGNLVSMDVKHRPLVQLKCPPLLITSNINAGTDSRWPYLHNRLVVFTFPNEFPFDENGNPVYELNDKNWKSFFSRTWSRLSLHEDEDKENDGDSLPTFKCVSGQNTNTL
Chain of UniProt P54578 (whole entry, looked up): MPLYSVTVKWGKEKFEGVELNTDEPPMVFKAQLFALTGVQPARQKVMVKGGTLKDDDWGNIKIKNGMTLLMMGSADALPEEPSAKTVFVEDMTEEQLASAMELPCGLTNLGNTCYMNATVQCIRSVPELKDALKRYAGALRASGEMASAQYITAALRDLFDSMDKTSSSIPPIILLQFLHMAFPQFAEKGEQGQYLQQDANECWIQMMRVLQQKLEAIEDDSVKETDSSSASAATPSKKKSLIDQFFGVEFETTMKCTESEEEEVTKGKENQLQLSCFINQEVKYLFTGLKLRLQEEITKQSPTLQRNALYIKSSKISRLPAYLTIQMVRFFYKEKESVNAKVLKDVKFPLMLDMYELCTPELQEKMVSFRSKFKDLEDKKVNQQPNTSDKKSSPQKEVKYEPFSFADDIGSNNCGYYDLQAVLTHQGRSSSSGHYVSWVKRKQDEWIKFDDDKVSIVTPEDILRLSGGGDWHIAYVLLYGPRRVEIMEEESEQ
Chain of UniProt P21802 (whole entry, looked up): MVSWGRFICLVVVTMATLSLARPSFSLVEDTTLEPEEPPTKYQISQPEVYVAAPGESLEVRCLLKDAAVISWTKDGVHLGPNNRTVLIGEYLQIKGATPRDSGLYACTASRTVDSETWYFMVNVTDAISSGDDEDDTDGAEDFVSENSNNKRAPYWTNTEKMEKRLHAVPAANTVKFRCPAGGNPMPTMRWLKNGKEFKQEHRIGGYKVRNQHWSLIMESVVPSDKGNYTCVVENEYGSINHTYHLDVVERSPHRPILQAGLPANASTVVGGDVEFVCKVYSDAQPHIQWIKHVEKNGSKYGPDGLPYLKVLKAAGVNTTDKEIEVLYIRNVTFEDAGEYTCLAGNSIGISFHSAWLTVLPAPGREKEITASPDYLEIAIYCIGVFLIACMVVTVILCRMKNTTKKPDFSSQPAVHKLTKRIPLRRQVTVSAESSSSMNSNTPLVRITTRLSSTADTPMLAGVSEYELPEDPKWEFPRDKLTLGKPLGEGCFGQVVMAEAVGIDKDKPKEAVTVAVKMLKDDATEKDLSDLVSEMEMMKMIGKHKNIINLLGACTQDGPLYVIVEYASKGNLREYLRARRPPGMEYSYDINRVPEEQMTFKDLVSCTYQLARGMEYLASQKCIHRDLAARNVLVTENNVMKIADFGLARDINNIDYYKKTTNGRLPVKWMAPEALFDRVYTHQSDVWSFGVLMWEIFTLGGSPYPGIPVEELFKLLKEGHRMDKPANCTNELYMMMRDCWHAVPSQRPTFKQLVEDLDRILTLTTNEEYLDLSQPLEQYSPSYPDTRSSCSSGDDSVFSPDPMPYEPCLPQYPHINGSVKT
Chain of UniProt P53350 (whole entry, looked up): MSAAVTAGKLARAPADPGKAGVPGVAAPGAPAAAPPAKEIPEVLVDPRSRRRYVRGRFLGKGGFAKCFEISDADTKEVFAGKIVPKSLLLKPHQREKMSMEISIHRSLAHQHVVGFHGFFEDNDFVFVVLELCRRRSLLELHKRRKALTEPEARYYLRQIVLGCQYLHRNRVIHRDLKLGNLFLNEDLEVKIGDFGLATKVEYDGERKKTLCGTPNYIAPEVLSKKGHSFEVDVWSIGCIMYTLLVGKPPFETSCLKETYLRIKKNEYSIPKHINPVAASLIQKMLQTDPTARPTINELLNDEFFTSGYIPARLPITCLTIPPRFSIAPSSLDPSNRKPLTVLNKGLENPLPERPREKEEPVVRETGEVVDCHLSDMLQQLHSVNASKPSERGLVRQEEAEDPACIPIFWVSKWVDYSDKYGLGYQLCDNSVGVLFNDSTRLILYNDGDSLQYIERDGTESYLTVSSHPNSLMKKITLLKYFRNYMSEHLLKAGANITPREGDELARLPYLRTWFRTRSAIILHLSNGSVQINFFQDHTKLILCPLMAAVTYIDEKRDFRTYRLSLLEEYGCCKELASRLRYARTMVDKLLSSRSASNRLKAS
Chain of UniProt P30043 (whole entry, looked up): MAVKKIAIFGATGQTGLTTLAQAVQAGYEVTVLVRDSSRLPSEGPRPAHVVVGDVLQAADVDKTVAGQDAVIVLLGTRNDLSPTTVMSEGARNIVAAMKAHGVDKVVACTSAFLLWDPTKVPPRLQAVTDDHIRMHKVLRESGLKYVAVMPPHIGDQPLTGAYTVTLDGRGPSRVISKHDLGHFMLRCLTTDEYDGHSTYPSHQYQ

| Compound | target or system | assay | system | conditions | scale | measurement | value |
| --- | --- | --- | --- | --- | --- | --- | --- |
| COc1cc2c(cc1S(=O)(=O)F)C(=O)NCCC2 | Uncharacterized hydrolase SAUSA300_2518 | enzyme activity, inhibitor, fluorogenic substrate |  | 10 µM |  | remaining activity | 93.4% and 92.3% and 92.8% |
| CO[C@@H]1[C@@H](OC(=O)c2ccc(C)[nH]2)[C@@H](O)[C@H](Oc2ccc3c(O)c(NC(=O)c4c[nH]c(C(=O)Nc5c(O)c6ccc(O[C@@H]7OC(C)(C)[C@H](OC)[C@@H](OC(=O)c8ccc(C)[nH]8)[C@H]7O)c(C)c6oc5=O)c4C)c(=O)oc3c2C)OC1(C)C | Replication protein E1, helicase domain (E1, Human papillomavirus type 16, UniProt P03114) | fork unwinding |  | 500 µM |  | remaining activity | 0% |
| COc1ccccc1-c1n[nH]c2nc(NC3CCN(C(=O)Cc4ccc(F)cc4F)CC3)ncc12 |  | bead binding, competition bead pull-down, refers to: LINJ.36.2140 | Leishmania donovani axenic amastigote extract | 10 µM | relative to: vehicle | relative abundance | 0.99 |
| O=C1NC(=O)c2c1c1cc(F)c[n+]3c1c1c2c2cc(O)ccc2[n]1[Ru-4]312([N]=C=S)[S+]3CC[S+]1CC[S+]2CC3 (stereo not shown) | Fibroblast growth factor receptor 2 (FGFR2, Homo sapiens, UniProt P21802) | enzyme activity |  | 100 nM, human enzyme, added: 10 µM ATP | relative to: untreated | remaining activity | 81% |
| [CH3][Ti+2][O]C(=O)c1ccc([S][Au][PH](c2ccccc2)(c2ccccc2)c2ccccc2)cc1.c1cc[cH-]c1.c1cc[cH-]c1 | RAC-gamma serine/threonine-protein kinase (AKT3, Homo sapiens, UniProt Q9Y243) | kinase activity, HotSpot radiometric |  | 1 µM, added: ATP 10 µM | relative to: vehicle | remaining activity | 85.8% and 85.3% |
| O=C(O)c1ccc(-c2nc(-c3ccccc3Cl)c3sccn23)cc1 | Flavin reductase (NADPH) (BLVRB, Homo sapiens, UniProt P30043) |  |  | concentration not given |  | remaining activity | 32% |
| Cc1ccc(N2CC3CCC(C2)N3C)cc1C(=O)N[C@H](C)c1cc(-c2cnn(C)c2)nc2ccccc12 | Ubiquitin carboxyl-terminal hydrolase 14 (USP14, Homo sapiens, UniProt P54578) | enzyme activity |  | 30 µM |  | remaining activity | 96.4% |
| CN1CCCN(C(=O)c2ccc(S(=O)(=O)F)cc2)c2ccccc21 | Uncharacterized hydrolase SAUSA300_2518 | enzyme activity, inhibitor, fluorogenic substrate |  | 1 µM |  | remaining activity | 113% and 111% |
| O=C1NC2(CC2)COc2ncc(F)cc2[C@H]2COCCN2c2ccn3ncc1c3n2 |  |  | Sprague-Dawley rat, male, heart | oral, 10 mg/kg/day, 4 weeks dosing, end of recovery |  | organ-to-brain weight ratio | 71.7 ± 2.39% |
| CC(C)[C@H]1NC(=O)C[C@H]2/C=C/CCSSC[C@@H](NC1=O)C(=O)N[C@H](Cc1cccc3ccccc13)C(=O)NCC(=O)O2 | Platelet-derived growth factor receptor alpha (PDGFRA, Homo sapiens, UniProt P16234) | enzyme activity, inhibitor |  | 10 µM |  | inhibition | 8.9% |
| Cc1cccc(-c2ccc3nc(NC(=O)C4CCOCC4)nn3c2)c1 | Serine/threonine-protein kinase PLK1 (PLK1, Homo sapiens, UniProt P53350) | enzyme activity |  | 10 µM |  | remaining activity | 52% |
| O=S(=O)(F)c1cccc2c1OCC2 | Uncharacterized hydrolase SAUSA300_2518 | enzyme activity, inhibitor, fluorogenic substrate |  | 10 µM |  | remaining activity | 110% and 105% |
| CC(C)(C)C(=O)OCOP(=O)(OCOC(=O)C(C)(C)C)C1CCCN(O)C1=O (stereo not shown) | LOX IMVI | cell growth |  |  |  | TGI | 12.3 µM |
